Experimental data collected from several papers.
Parts stem from different laboratories: compare values within a part only. Substitutions count along the parent as printed.

Series 1 — technique: competition protein-binding microarray; form: double-stranded DNA, one strand shown; sample: in vitro; tested at: 2 µM; together with: Cbf1 competitor, 0.05 µM; direction: higher = stronger binding; constant ends, left off below: … GTCTTGATTCGCTTGACGCTGCTG
Target: Phosphate system positive regulatory protein PHO4, full length, GST-tagged (PHO4, Saccharomyces cerevisiae, UniProt P07270, residues 1-312)
Setting: whole 60-bp probe, lowest competitor level
Residues (chain): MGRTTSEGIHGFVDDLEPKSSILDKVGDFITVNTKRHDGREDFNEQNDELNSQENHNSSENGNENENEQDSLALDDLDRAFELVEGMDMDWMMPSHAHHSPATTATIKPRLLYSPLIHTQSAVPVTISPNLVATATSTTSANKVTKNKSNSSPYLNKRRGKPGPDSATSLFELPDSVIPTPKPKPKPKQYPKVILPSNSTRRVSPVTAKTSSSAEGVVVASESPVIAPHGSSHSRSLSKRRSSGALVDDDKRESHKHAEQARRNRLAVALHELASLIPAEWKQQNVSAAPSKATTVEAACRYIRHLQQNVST
Strand | fluorescence intensity [a.u.]
AAATTACTAAGTTGTCACCCGACTTACCCCGTATGA | 3310
TTGTGTGTATGGTTCCACGTTTCTGCCTTGTGCTTT | 14200
TTGCTGGTTACCCTGCATGTGATATTTGATTACATA | 7980
TAGAGGCAAAGTAGTCACCTGACTGCGCAAGCCCAT | 4060
GAGAGAATGAACCATCACGTGTGAACCCAAAAGGCC | 15200
AAAGCGGTAATTTGTGCCGTGGGTGCAGATATCTAT | 4840
CGGCGCTAAACTCTTCACGTGAGGAGTTCACTAGAG | 10300
CCGCCGACACATATACACGTGTATATGTATGCCTAT | 15900
TAAAGTGCCCGCCATCACGTCACTTCTTCCTACAGA | 4160
CTTTCCCGATCTTGTCACCTCACTTTAGCACATTTG | 4120
AAATTACTAAGTTTTCACGTGAACTACCCCGTATGA | 9790
TCAAAAAAGCCAAAAAGGGTGTGCCTGTAGATTGTG | 6690
CTTCTGTAAATTTGGGTGGTGGGTGGACGCGCCCCG | 5030
CATACCCAACCTTGTCACATGACTTAAGATATTTGT | 7430
CTTTCCCGATCTTGTCACAACACTTTAGCACATTTG | 4600
AACCTAAAACGACTTTGTGTGACGCCGAAGAGAAAG | 4130
TTTGTGCAGCACAATCACCTGTGGTTACTGGAGAAT | 5560
CATACCCAACCTTGGCTGGTGGGTGAAGATATTTGT | 3580
ATGGGTACCACAAAGCGAGGTCGCTTTTGAAGAGCC | 3740
TTTACAATTCCAAACCATGTGATGCTTGTCAGAGGG | 8450
CTTCTGTAAATTTGTCACGGGACTTGACGCGCCCCG | 5570
CGACTTGGTAGAAAGCACGATCTTCAGTGGAGTTGA | 9700
GGGTGCCGGTACTTCCACGGGCCTCCAGTCCAGGAC | 5750
GTCATTACGGGGGTTCACGTGCGATGGGAAGCTTTT | 15600
CTTCTGTAAATTTTTCACGTGTGATGACGCGCCCCG | 11700

Series 2 — technique: DHFR PCA, dose-response; sample: yeast; setting: Hill fit, mean, not affinity; together with: (+)-ABA, dose series; direction: lower = more sensitive
Target: ABI1, truncated, D143A, DHFR fusion (Arabidopsis thaliana, UniProt P49597)
Starting sequence: PYL1, truncated, DHFR fusion (Arabidopsis thaliana, UniProt Q8VZS8); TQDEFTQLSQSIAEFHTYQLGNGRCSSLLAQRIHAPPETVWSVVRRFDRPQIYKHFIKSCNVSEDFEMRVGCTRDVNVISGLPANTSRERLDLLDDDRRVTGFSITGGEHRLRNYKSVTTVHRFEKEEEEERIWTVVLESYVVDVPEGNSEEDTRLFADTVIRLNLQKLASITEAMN
Change | ABA EC50 [µM]
M176S | 3.98
S11D | 1.67
H16I | 563
Q10R | 1.85
R132N | 0.419
K168D | 133
L20G | 2.3
K58A | 2.3
T39P | 39.3
F124K | 25.9
D92M | 48.3
L93Q | 4.16
W134F | 1.49
I133Y | 2.29
D75F | 1.23
Y53V | 320
E128V | 3.79
G71C | 321
D144P | 45.2
P36G | 19.2
F124D | 3.09

Series 3 — target: UBE2T UBC core domain (UniProt Q9NPD8); technique: yeast two-hybrid; sample: yeast; setting: mostly zero background; reference: not given; direction: higher = stronger interaction
B1: RNF103 RING domain (UniProt O00237); chain WPADMLHCTECVVCLENFENGCLLMGLPCGHVFHQNCIVMWLAGGRHCCPVCRWPSYKKKQPY
B2: NFX1 RING domain (UniProt Q12986); chain IEQLTTEKYECMVCCELVRVTAPVWSCQSCYHVFHLNCIKKWARSPASQADGQSGWRCPACQNVSAHVPNTY
B3: TRIM41 RING domain (UniProt Q8WV44); chain PVQTLQEEAVCAICLDYFTDPVSIGCGHNFCRVCVTQLWGGEDEEDRDELDREEEEEDGEEE
B4: RNF182 RING domain (UniProt Q8N6D2); chain AESQASDELECKICYNRYNLKQRKPKVLECCHRVCAKCLYKIIDFGDSPQGVIVCPFCRFETCLPDDEV
B5: MKRN3 RING domain (UniProt Q13064); chain FAVQRGMDKVCGICMEVVYEKANPNDRRFGILSNCNHSFCIRCIRRWRSARQFENRIVKSCPQCRVTSELVIPSE
B6: CNOT4 RING domain (UniProt O95628); chain MSRSPDAKEDPVECPLCMEPLEIDDINFFPCTCGYQICRFCWHRIRTDENGLCPACRKPYPED
B7: ZMYND11 RING domain (UniProt Q15326); chain DEIDWETENHDWYCFECHLPGEVLICDLCFRVYHSKCLSDEFRLRDSSSPWQCPVCRSIKKKNTNKQEM
B8: RNF6 RING domain (UniProt Q9Y252); chain NSIDSELGKICSVCISDYVTGNKLRQLPCMHEFHIHCIDRWLSENCTCPICRQPVLGSNIAN
B9: HLTF RING domain (UniProt Q14527); chain LILSSGSDEECAICLDSLTVPVITHCAHVFCKPCICQVIQNEQPHAKCPLCRNDIHEDNLLE
Residues (chain): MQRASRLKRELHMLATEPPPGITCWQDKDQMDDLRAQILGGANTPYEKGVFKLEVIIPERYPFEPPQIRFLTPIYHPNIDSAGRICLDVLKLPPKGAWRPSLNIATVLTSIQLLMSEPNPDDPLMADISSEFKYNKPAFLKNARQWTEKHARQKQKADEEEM
Sequence | lacZ reporter activity
FAEQPSVKLCCQLCCSVFKDPVITTCGHTFCRRCALKSEKCPVDNVKLTVVVNNI (TRAF7 RING domain (UniProt Q6Q0C0)) | 0
B1 (RNF103 RING domain) | 0
B2 (NFX1 RING domain) | 0
B3 (TRIM41 RING domain) | 0
B4 (RNF182 RING domain) | 0
B5 (MKRN3 RING domain) | 0
B6 (CNOT4 RING domain) | 0
FDPPLESKYECPICLMALREAVQTPCGHRFCKACIIKSIRDAGHKCPVDNEILLENQLFP (TRAF6 RING domain (UniProt Q9Y4K3)) | 0
LVKDFNPYITCYICKGYLIKPTTVTECLHTFCKTCIVQHFEDSNDCPRCGNQVHETNPLE (PCGF5 RING domain (UniProt Q86SE9)) | 0
B7 (ZMYND11 RING domain) | 0
B8 (RNF6 RING domain) | 0
EIKEYKARLTCPCCNTRKKDAVLTKCFHVFCFECVRGRYEARQRKCPKCNAAFGAHDFHR (RNF40 RING domain (UniProt O75150)) | 0
LEALSSDFLACKICLEQLRAPKTLPCLHTYCQDCLAQLADGGRVRCPECRETVPVPPEGV (TRIM56 RING domain (UniProt Q9BRZ2)) | 0
ASPKIFQKTKCSICNSALELPSVHFLCGHSFHQHCFESYSESDADCPTCLPENRKVMDMI (VPS11 RING domain (UniProt Q9H270)) | 0
B9 (HLTF RING domain) | 0

Series 4 — target: JUN, bZIP domain (human); technique: DHFR protein complementation; sample: yeast; reference: wild-type JUN-FOS pair; direction: higher = stronger binding
Setting: single substitutions, most at no-binding floor
Starting sequence: JUN, bZIP domain (human); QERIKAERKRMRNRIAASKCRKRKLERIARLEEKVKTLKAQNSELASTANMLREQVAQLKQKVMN; partner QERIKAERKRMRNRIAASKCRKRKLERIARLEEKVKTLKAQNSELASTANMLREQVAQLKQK
Change | binding fitness [natural log]
V35I | -0.0202
V56Q | -0.962
M51K | -0.155
I28V | -0.428
K36W | -0.878
A57M | -0.357
N42I | -1.16
Q55E | -0.164
K34I | -0.153
K39N | -0.391
A57H | -0.296
T48I | -0.253
K34M | -0.0535
E32T | -0.497
Q55A | -0.574
R53Q | -0.499
Q41V | -0.444
A46L | -0.145
K36R | -0.109
S47A | -0.0577
T48D | -0.44
V35F | -0.813
A49H | -1
T37R | -0.197
L59W | -0.751

Series 5 — technique: RNA Bind-n-Seq; form: RNA; sample: in vitro; tested at: 200 nM; setting: whole 134-nt RNA, ends assumed; together with: 150 mM KCl; reference: input library; direction: higher = stronger binding
Target: Ras GTPase-activating protein-binding protein 1, full length (G3BP1, Homo sapiens, UniProt Q13283)
UniProt Q13283, sequence (whole entry, looked up): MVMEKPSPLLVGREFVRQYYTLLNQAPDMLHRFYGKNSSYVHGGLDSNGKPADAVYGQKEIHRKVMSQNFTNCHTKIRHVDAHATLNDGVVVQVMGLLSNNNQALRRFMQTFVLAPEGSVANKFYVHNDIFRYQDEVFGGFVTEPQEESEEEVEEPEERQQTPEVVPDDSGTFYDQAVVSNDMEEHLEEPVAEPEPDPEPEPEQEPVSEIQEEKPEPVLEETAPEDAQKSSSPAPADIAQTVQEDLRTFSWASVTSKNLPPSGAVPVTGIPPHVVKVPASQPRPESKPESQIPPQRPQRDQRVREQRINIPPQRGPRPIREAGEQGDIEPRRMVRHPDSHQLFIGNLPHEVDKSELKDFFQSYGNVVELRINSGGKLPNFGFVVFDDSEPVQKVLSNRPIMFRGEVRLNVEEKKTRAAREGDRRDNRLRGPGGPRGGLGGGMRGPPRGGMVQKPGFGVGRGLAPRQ
Constant ends, left off below: GGGAGUUCUACAGUCCGACGAUC … UGGAAUUCUCGGGUGUCAAGG
Strand | log2 enrichment
UCCUGUGCUACACAUCGUAUGUACCGAAUCGGGAAAAAAGGAAAAAAGGGAAAAAAGGGAAAGUAUUAUGUUACGCCGUUCGGAUCUGCA | -0.461
CAAGUCCUGUGCUACACAUCGUAUGUACCGAAUCGGAAAAAGGUGGUUUUUUUGGAAAGUAUUAUGUUACGCCGUUCGGAUCUGCACUUC | -1.25
GUCCUGUGCUACACAUCGUAUGUACCGAAUCAAACCCAAACCCCCCCAAACCCCCAAAAAAGUAUUAUGUUACGCCGUUCGGAUCUGCAC | -0.315
CCUCAAGUCCUGUGCUACACAUCGUAUGUACCGAAUCGGGGCGGCGGCGGGGAAAGUAUUAUGUUACGCCGUUCGGAUCUGCACUUCCAG | 0.4
UCUCCCAUCAAAGGACGUGCACAGCCUUAUGAUCCCAAUUUUUACGAUGAAACCUAUGAUUAUGGUGGUUUUACAAUGAUGUUUGAUGAC | 1.72
GUCCUGUGCUACACAUCGUAUGUACCGAAUCGGGGUUUUUGGGGAAAAAGGGGAGGGGAAAGUAUUAUGUUACGCCGUUCGGAUCUGCAC | 0.461
UCCUGUGCUACACAUCGUAUGUACCGAAUCAAAUUUUUUUAAACCCCCCCAAACCCAAAAAAGUAUUAUGUUACGCCGUUCGGAUCUGCA | -0.0224
UAACUUUAGAGGAGGAUCUGAUGGAUAUGGCAGUGGACGUGGAUUUGGGGAUGGCUAUAAUGGGUCUGGAGGAGGACCUGGAGGUGGCAA | 0.23
UGUGCUACACAUCGUAUGUACCGAAUCGGGGCCCCCCCGGGCCCCCCCGGGGCCCCCCCGGGGAAAGUAUUAUGUUACGCCGUUCGGAUC | -0.968
CACACACAACACGCACCCACACAGACACAGAGGGAAGGGGUUGGGAUGGGGACAGGGUGCACAGCAGGGCGGGGUAGGACCCCAGCCCCU | 1.59
ACCAUGCAGGUGGGCAUCUUUGGGAAGUGGGGCAAGGGGGGGAUAGGGAGGGGGGUAACACUUUGGGAACAGGUGGUCCCAGGUCCUUUC | 1.2
CCUCAAGUCCUGUGCUACACAUCGUAUGUACCGAAUCGGGGUGGUGGGGUGGGAAAGUAUUAUGUUACGCCGUUCGGAUCUGCACUUCCA | 0.612
CAAGUCCUGUGCUACACAUCGUAUGUACCGAAUCGGGUUUGGGGUUUGGGGUUUGGAAAGUAUUAUGUUACGCCGUUCGGAUCUGCACUU | -0.267
AAGUCCUGUGCUACACAUCGUAUGUACCGAAUCGGGCCCGGGGCCCGGGGCCCGGGGAAAGUAUUAUGUUACGCCGUUCGGAUCUGCACU | -0.991

Series 6 — target: CCNA2, cyclin fold, Cln2 fusion (human); technique: yeast growth competition, sequencing; sample: yeast; setting: strong parent motif; reference: not given; direction: higher = stronger binding
Starting sequence: DTL docking peptide (human); PSSMRKICTYFHR
Change | normalised enrichment score
PSSMRKICTAFHR [Y10A] | 1.5
PASMRKICTYFHR [S2A] | 1.22
PSSMRKICAYFHR [T9A] | 1.33
PSSMRKACTYFHR [I7A] | 1.15
PSAMRKICTYFHR [S3A] | 1.23
PSSMAKICTYFHR [R5A] | 1.4

Repeated from above (series 4):
Change | binding fitness [natural log]
N42I | -1.16
Q55E | -0.164
K34I | -0.153
K39N | -0.391
A57H | -0.296
T48I | -0.253
K34M | -0.0535
E32T | -0.497
Q55A | -0.574
R53Q | -0.499
Q41V | -0.444
A46L | -0.145
K36R | -0.109
